Assay results gathered from unrelated publications.
A part holds a random share of what one study measured. Positions count from the first letter of the parent shown.

Sample 1 — method: RNA Bind-n-Seq; form: RNA; medium: in vitro; concentration: not given; notes: 4-mer, random 30-nt RNA, single round; added: RocA, ADP, phosphate; baseline: input library; direction: higher = stronger binding
Target: Eukaryotic initiation factor 4A-I (EIF4A1, Homo sapiens, UniProt P60842, residues 1-406, full length assumed)
Sequence of UniProt P60842 (whole entry, looked up): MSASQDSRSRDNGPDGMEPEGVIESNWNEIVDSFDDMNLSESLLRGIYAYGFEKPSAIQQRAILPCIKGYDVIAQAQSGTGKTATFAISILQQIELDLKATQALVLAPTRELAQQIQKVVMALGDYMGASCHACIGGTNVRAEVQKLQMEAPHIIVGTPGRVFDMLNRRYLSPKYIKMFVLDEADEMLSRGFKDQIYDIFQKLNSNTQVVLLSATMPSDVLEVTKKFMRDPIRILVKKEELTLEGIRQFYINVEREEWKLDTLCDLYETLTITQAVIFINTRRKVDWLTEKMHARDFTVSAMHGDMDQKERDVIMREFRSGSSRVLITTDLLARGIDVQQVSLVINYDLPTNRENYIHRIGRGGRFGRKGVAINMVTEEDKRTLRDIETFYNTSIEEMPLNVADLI
Oligonucleotide | 4-mer enrichment [fold]
GAAA | 1.66
UGUG | 1.15
UUGG | 1.2
GCGU | 0.916
UAGA | 1.6
GAGU | 3.78
CUUC | 0.488
UGUA | 0.947

Sample 2 — method: RNA Bind-n-Seq; form: RNA; medium: in vitro; concentration: 200 nM; notes: whole 134-nt RNA, ends assumed; added: 150 mM LiCl; baseline: input library; direction: higher = stronger binding; each molecule: 7-deaza-guanosine replaces G
Target: Fragile X messenger ribonucleoprotein 1, C-terminal low-complexity region (Fmr1, Mus musculus, UniProt P35922)
Shared flanks, not repeated: GGGAGUUCUACAGUCCGACGAUC … UGGAAUUCUCGGGUGUCAAGG
Oligonucleotide | log2 enrichment
AGUCCUGUGCUACACAUCGUAUGUACCGAAUCGGGGAAAAGGGAAAAGGGGAAAAGGAAAGUAUUAUGUUACGCCGUUCGGAUCUGCACU | -0.8
UGUUCUGCAGAGGGGCGGUGUCAUUACUGAUGAAGAGGAAACCUCUAAGAAGAUAGCUGACCAGUUGGACAACAUUGUGGACAUGCGCGA | -3.64
UCAAGUCCUGUGCUACACAUCGUAUGUACCGAAUCGGAAAGGGGAAAGGAAAGGAAAGUAUUAUGUUACGCCGUUCGGAUCUGCACUUCC | -0.778
GUCCUGUGCUACACAUCGUAUGUACCGAAUCGGGCCCCCGGGCCCCCGGGGCCCCCGGGAAAGUAUUAUGUUACGCCGUUCGGAUCUGCA | -3.07
GAUCUCCGGGCUCAGUUGCAGAUUCUGGCCAACAUGGACAGCCAGCUAAAAGAGCUACAGAGUCAGCAUACCCAUUGUGCCCAGGACCUG | -0.813
CUGUGCUACACAUCGUAUGUACCGAAUCGGGGCCCCCCGGGGCCCCCCGGGGCCCCCCGGGAAAGUAUUAUGUUACGCCGUUCGGAUCUG | -2.67
AGUCCUGUGCUACACAUCGUAUGUACCGAAUCGGGAAAGGGUUUUUGGGUUUUUGGGAAAGUAUUAUGUUACGCCGUUCGGAUCUGCACU | -2.76
GCAGGAAGUAAAAACAAAUGGAAAUGCUUCGGAUAGUGGCAGGGGUGGGGGUUGCUAAGGAAAGGGUGGCAUGGGAGUGGGUAAAGAGUU | 1.51

Sample 3 — target: CCNA1, cyclin fold, Cln2 fusion (human); method: yeast growth competition, sequencing; medium: yeast; notes: weak parent motif; baseline: not given; direction: higher = stronger binding; parent: viral docking peptide; KKAKRRLFTISDS
Variant | normalised enrichment score
F8L | 0.911
R6A | 0.522
R5K | 0.262
R5A L7A | 0.0855
I10A | 0.0451
F8A | 0.369
K4A | 0.407
K1A | 0.154
L7A | 0.241

Sample 4 — method: protein binding microarray; form: double-stranded DNA, one strand shown; medium: in vitro; concentration: not given; baseline: not given; direction: higher = stronger binding
Target: Histone acetyltransferase KAT6A, both winged helices, GST fusion (KAT6A, Homo sapiens, UniProt Q92794, residues 1-181)
Notes: 8-mer, flanks averaged, mean of 2 arrays, mostly near background
Target sequence (chain): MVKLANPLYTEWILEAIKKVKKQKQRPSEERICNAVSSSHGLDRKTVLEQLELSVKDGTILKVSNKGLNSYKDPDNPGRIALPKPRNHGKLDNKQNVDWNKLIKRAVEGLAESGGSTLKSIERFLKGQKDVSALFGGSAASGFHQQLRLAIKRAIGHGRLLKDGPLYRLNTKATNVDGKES
Oligonucleotide | E-score
CGGGTCCC | 0.187
CATGTACC | 0.00275
ATTTGGTG | -0.248
TAACTGCA | -0.159
CCCGAAAC | 0.0327
CGCGGACC | 0.307
GAATATAA | -0.0653
GTGCGCAC | 0.351
